Measurements pooled from the literature.
± marks the error that the study gave.

| SMILES | test | system | setting | scale | endpoint | result |
| --- | --- | --- | --- | --- | --- | --- |
| C#Cc1ccc2c(c1)C(c1ccccn1)=NCc1c(-c3cnco3)ncn1-2 | – | CD-1 mouse hepatocytes | 2 µM, 4 h, 37 °C | – | metabolite peak area share | 60.5% |
| OCc1ncc2n1-c1ccc(Cl)cc1C(c1ccccc1F)=NC2 | – | healthy volunteers, plasma | dose not given, added: momelotinib | baseline: with momelotinib over alone | AUCinf geometric mean ratio | 83.8% |
| CCCC(C(=O)c1ccc(O)c(O)c1)N1CCCC1 (stereo not drawn) | – | rat | subcutaneous, 4 mg/kg MDPV, 40 min | – | brain-to-plasma ratio | 0.1 ± 0.1 |
| COC(=O)[C@H]1[C@@H](OC(=O)c2ccccc2)C[C@@H]2CC[C@H]1N2 | LC-MS/MS | Sprague-Dawley rat, whole blood | intraperitoneal, 20 mg/kg of cocaine | – | AUC(0-inf) | 6.76 ± 0.4 µg·min/mL |
| COc1ccc2c3c1O[C@H]1C(=O)C=C[C@@]4(O)[C@@H](C2)N(C)CC[C@]314 | pH-potentiometric titration | – | – | baseline: O-methyl derivative | Δlog K, 14-hydroxylation effect | 0.8 log units |
| Cc1ncc2n1-c1ccc(Cl)cc1C(c1ccccc1F)=NC2 | – | wild-type mice, plasma | intravenous, 0.3 mg/kg, added: 3-day PB, BC 500 mg/kg and PCN 10 mg/kg | – | half-life | 26.7 ± 11.8 min |
| OCc1ncc2n1-c1ccc(Cl)cc1C(c1ccccc1F)=NC2 | – | human, plasma | oral, 7.5 mg of midazolam, day 1, arithmetic mean, no amenamevir | – | AUC(0-t) | 45.8 ng·h/mL |
| C[C@]12CC[C@H]3[C@@H](CC=C4CC(O)CC[C@@]43CO)[C@@H]1CCC2O (stereo partly drawn) | – | rat, GAN diet-induced MASH | dose not given | baseline: vehicle | food intake | no effect |
| COc1cccc(C2(O)CCCCC2CN(C)C)c1 (stereo not drawn) | joint PK model | human, whole blood | oral, one-compartment metabolite model | – | Kt | 0.0433 L/h |
| CCOC(=O)Nc1ccc(NCc2ccc(F)cc2)cc1N | rotarod test | mouse, CCI neuropathic pain model | 10 mg/kg | – | time to fall | 1.61 ± 0.13 min |
| O=C(O)CCC(CP(=O)(O)O)C(=O)O (stereo not drawn) | – | Wistar rat, male, plasma | ip, 100 mg/kg | – | AUC(0-inf) | 12600 µg·min/mL |
| CN(C)C[C@H]1CCCC[C@]1(O)c1cccc(O)c1 | joint PK model | human | dose not given, two-compartment metabolite model | – | metabolite central volume | 43.1 L |
| Cc1ncc(OC[C@@]2(c3cccc(F)c3)C[C@H]2C(=O)Nc2ccc(F)cn2)c(C)n1 | population PK base model | human, plasma | oral, capsule | – | absorption rate constant | 0.526 h⁻¹ |
| CCCCCCCCCCC(=O)O[C@H]1CC[C@H]2[C@@H]3CCC4=CC(=O)CC[C@]4(C)[C@H]3CC[C@]12C | – | human male serum | 500 ng/mL, NaF 200 mg/mL, baseline testosterone 544 ng/dL | – | testosterone level | 551 ng/dL |
| COC(=O)[C@@H]1[C@H]2CC[C@@H](C[C@@H]1O)N2C | LC-MS/MS | Sprague-Dawley rat, whole blood | intraperitoneal, 20 mg/kg of cocaine | – | AUC(0-inf) | 31.8 ± 1.79 µg·min/mL |
| C/C=C1/CN2CC[C@]34C(=C(C(=O)OC)[C@H]1C[C@H]23)Nc1ccc(Br)cc14 | – | CD-1 mouse | subcutaneous, 10 mg/kg, 10 min | baseline: baseline | rotarod latency | ~30% |
| CCCCCCCCCCC(=O)O[C@H]1CC[C@H]2[C@@H]3CCC4=CC(=O)CC[C@]4(C)[C@H]3CC[C@]12C | measured: testosterone | human, plasma | oral, 237 mg | – | t1/2 | 11.9 h |
| CCCC(C(=O)c1ccc2c(c1)OCO2)N1CCCC1.Cl (racemic) | LC-MS/MS | rat, trunk blood plasma | subcutaneous, 2 mg/kg, 240 min | – | plasma concentration | 18.8 ± 3 ng/mL |
| CN1COCN(Cc2cnc(Cl)s2)/C1=N\[N+](=O)[O-] | – | soil | 0 days, nominal 10 | – | recovery | 73% |
| COc1ccc2c(c1)[C@]13CCCC[C@@H]1[C@H](C2)N(C)CC3 | measured: compound over dextrorphan molar | human, urine | oral, dose not given, added: upadacitinib once daily | baseline: with over without upadacitinib | urinary metabolic ratio | 0.78 |
| CN/C(=N\[N+](=O)[O-])NCc1cnc(Cl)s1 | – | soil | 28 days, nominal 0.37 | – | recovery | 46% |
| O=C1c2c(O)c(=O)ccn2N([C@@H]2c3ccccc3SCc3c2ccc(F)c3F)[C@@H]2COCCN12 | – | BALB/c mouse | subcutaneous, 0.25 mg/kg q24h | – | trough concentration | 0.0818 ng/mL |
| CCC(CC)COC(=O)[C@H](C)N[P@](=O)(OC[C@H]1O[C@@](C#N)(c2ccc3c(N)ncnn23)[C@H](O)[C@@H]1O)Oc1ccccc1 | – | healthy human volunteers | dose not given | – | tolerability | not toxic |
| COc1ccc2c3c1O[C@H]1[C@@H](O)C=C[C@@]4(O)[C@@H](C2)N(C)CC[C@]314 | pH-potentiometric titration | – | – | baseline: O-methyl derivative | Δlog K, 14-hydroxylation effect | 0.78 log units |
| CCN(CC)C(=O)[C@@H]1C=C2c3cccc4[nH]cc(c34)C[C@H]2N(C)C1 | measured: tendency to cry | healthy volunteers | dose not given, 0 to 12 h | baseline: placebo, direction not given | List of Complaints score | 0 |
| CCCC(C(=O)c1ccc(O)c(OC)c1)N1CCCC1 (stereo not drawn) | – | rat | subcutaneous, 4 mg/kg MDPV, 240 min | – | brain-to-plasma ratio | 0.2 ± 0.1 |
| CN1CC[C@]23c4c5ccc(O[C@@H]6O[C@H](C(=O)O)[C@@H](O)[C@H](O)[C@H]6O)c4O[C@H]2[C@@H](O)C=C[C@H]3[C@H]1C5 | – | Sprague-Dawley rat, whole blood | intraperitoneal, 10 mg/kg heroin, single heroin dose alone | – | AUC(0-inf) | 312 ± 60.9 µg·min/mL |
